Measurements collected from several papers.
A part holds a random share of what one study measured. Substitutions count along the parent as printed.

Study 1 — target: CCND3, cyclin fold, Cln2 fusion (human); technique: yeast growth competition, sequencing; sample: yeast; setting: weak parent motif; baseline: not given; reading: higher = stronger binding; quantity: normalised enrichment score
Starting sequence: SLBP docking peptide (human); ARYKRKLLINDFG; partner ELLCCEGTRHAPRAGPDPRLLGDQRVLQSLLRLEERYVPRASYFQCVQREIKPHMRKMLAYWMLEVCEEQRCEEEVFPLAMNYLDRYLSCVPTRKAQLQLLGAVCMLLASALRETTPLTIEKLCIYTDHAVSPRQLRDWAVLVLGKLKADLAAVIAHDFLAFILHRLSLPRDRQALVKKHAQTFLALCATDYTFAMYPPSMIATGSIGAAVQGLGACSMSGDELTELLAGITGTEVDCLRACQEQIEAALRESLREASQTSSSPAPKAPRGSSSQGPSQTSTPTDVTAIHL
Variant = D11C; value = 0.128
Variant = K4I; value = 0.0809
Variant = R2F; value = 0.279
Variant = Y3R; value = 0.101
Variant = K4F; value = 0.149
Variant = K6D; value = 0.123
Variant = Y3K; value = 0.12
Variant = N10Q; value = 0.105
Variant = L8V; value = 0.223
Variant = A1P; value = 0.0711
Variant = G13Q; value = 0.155
Variant = L7H; value = 0.214
Variant = R5C; value = 0.196
Variant = R2C; value = 0.0834
Variant = D11R; value = 0.144
Variant = Y3W; value = 0.0813
Variant = F12T; value = 0.0127
Variant = Y3P; value = 0.111
Variant = F12S; value = 0.0726
Variant = N10A; value = 0.0508
Variant = Y3E; value = 0.147
Variant = L7A; value = 0.0768
Variant = I9Q; value = 0.0518
Variant = N10C; value = 0.126
Variant = Y3F; value = 0.186

Study 2 — technique: DHFR PCA, deep sequencing; sample: yeast; with: (+)-ABA 4.8 µM; baseline: wild-type fitted maximum; reading: higher = stronger binding; quantity: relative binding score
Target: ABI1, truncated, D143A, DHFR fusion (Arabidopsis thaliana)
Setting: methotrexate growth selection, single substitutions
Starting sequence: PYL1, truncated, DHFR fusion (Arabidopsis thaliana); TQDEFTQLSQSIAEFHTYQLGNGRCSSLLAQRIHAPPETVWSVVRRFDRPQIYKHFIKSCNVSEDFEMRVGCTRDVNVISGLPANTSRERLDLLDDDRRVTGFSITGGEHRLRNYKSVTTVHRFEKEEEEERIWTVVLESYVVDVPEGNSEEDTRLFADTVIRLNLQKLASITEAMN
Variant = S87K; value = -7.92%
Variant = T106P; value = 2.84%
Variant = H55F; value = 61.1%
Variant = V40W; value = 8%
Variant = N77V; value = 78.6%
Variant = V118Q; value = 17.4%
Variant = I52P; value = -0.193%
Variant = R46N; value = 15.2%
Variant = D3N; value = 58.2%
Variant = N165A; value = -3.36%
Variant = R113I; value = 59.7%
Variant = T154D; value = -5.04%
Variant = L29Q; value = 29.1%
Variant = E131Y; value = 56.3%
Variant = S104N; value = 16.3%
Variant = F124M; value = 91.7%
Variant = D3L; value = 64.2%

Study 3 — technique: protein binding microarray; molecule type: double-stranded DNA, one strand shown; sample: in vitro; tested at: not given; baseline: not given; reading: higher = stronger binding; quantity: E-score
Target: Histone acetyltransferase KAT6A, winged helix 1, GST fusion (KAT6A, Homo sapiens, UniProt Q92794, residues 1-85)
Setting: 8-mer, flanks averaged, mean of 2 arrays, mostly near background
Construct (chain): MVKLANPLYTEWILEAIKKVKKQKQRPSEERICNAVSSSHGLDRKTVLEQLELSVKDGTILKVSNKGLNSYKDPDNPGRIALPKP
Oligonucleotide = CTAGTTAA; value = -0.1
Oligonucleotide = GTATCGGA; value = 0.229
Oligonucleotide = ATGACATG; value = -0.191
Oligonucleotide = ACCGATGG; value = 0.021
Oligonucleotide = TACAGTAA; value = -0.164
Oligonucleotide = ATAACATC; value = -0.0505
Oligonucleotide = AATTCCGC; value = 0.153
Oligonucleotide = CACCAATA; value = -0.233
Oligonucleotide = AAGAATTG; value = -0.107
Oligonucleotide = GCCTTTAA; value = 0.0782
Oligonucleotide = GCGAGTAC; value = 0.133
Oligonucleotide = ACGACTCA; value = -0.271
Oligonucleotide = AAATCAGA; value = -0.231
Oligonucleotide = ACTACGAG; value = -0.0668
Oligonucleotide = ATTGGTGG; value = -0.26
Oligonucleotide = ACGCCCAG; value = -0.0688
Oligonucleotide = GGTATTAA; value = 0.117
Oligonucleotide = GCGGCTCC; value = 0.377
Oligonucleotide = GGTAGACC; value = 0.0725
Oligonucleotide = ACATCATA; value = -0.102
Oligonucleotide = ACAGCTAA; value = -0.103
Oligonucleotide = AGTCTGTC; value = -0.203
Oligonucleotide = TGTCGCAA; value = 0.00684

Study 4 — target: UBE2L3 UBC core domain (UniProt P68036); technique: yeast two-hybrid; sample: yeast; setting: mostly zero background; baseline: not given; reading: higher = stronger interaction; quantity: lacZ reporter activity
UniProt P68036, sequence (whole entry, looked up): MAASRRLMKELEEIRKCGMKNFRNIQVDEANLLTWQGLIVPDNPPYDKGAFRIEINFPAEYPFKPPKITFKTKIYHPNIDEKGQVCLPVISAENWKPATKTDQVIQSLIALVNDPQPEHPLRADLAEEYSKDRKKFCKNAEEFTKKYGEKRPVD
B1: TRIM63 RING domain (UniProt Q969Q1); chain PMENLEKQLICPICLEMFTKPVVILPCQHNLCRKCANDIFQAANPYWTSRGSSVSMSGGRFRCPTCRHEVIMDRHGV
B2: IRF2BPL RING domain (UniProt Q9H1B7); chain SPMANSGPLCCTICHERLEDTHFVQCPSVPSHKFCFPCSRESIKAQGATGEVYCPSGEKCPLVGSNVP
B3: RC3H2 RING domain (UniProt Q9HBD1); chain QAAQWTEFLSCPICYNEFDENVHKPISLGCSHTVCKTCLNKLHRKACPFDQTAINTDIDVL
B4: UHRF2 RING domain (UniProt Q96PU4); chain CGGDPEKKCHSCSCRVCGGKHEPNMQLLCDECNVAYHIYCLNPPLDKVPEEEYWYCPSCKTDSSEVVKAGER
B5: RNF170 RING domain (UniProt Q96K19); chain TRQQFYTDMYCPICLHQASFPVETNCGHLFCGACIIAYWRYGSWLGAISCPICRQTVTLLLTVF
Molecule = B1 (TRIM63 RING domain); value = 0
Molecule = FPEHFVKSISCQICEHILADPVETNCKHVFCRVCILRCLKVMGSYCPSCRYPCFPTDLES (RAG1 RING domain (UniProt P15918)); value = 0
Molecule = EDEVSDNSAECVVCLSDVRDTLILPCRHLCLCNTCADTLRYQANNCPICRLPFRALLQIR (RNF157 RING domain (UniProt Q96PX1)); value = 0
Molecule = KTLSRFGIQPCSICLGDAKDPVCLPCDHVHCLRCLRAWFASEQMICPYCLTALPDEFSPA (RNF213 RING domain (UniProt Q63HN8)); value = 0
Molecule = B2 (IRF2BPL RING domain); value = 0
Molecule = B3 (RC3H2 RING domain); value = 0
Molecule = B4 (UHRF2 RING domain); value = 0
Molecule = B5 (RNF170 RING domain); value = 0
Molecule = VTLSLTLPITCHICLGKVRQPVICINNHVFCSICIDLWLKNNSQCPACRVPITPENPCK (OBI1 RING domain (UniProt Q5W0B1)); value = 0
Molecule = RLTMMWEEVTCPICLDPFVEPVSIECGHSFCQECISQVGKGGGSVCPVCRQRFLLKNLRP (TRIM21 RING domain (UniProt P19474)); value = 0

Repeated from above (study 2):
Variant = L29Q; value = 29.1%
Variant = V40W; value = 8%
Variant = T106P; value = 2.84%
Variant = R113I; value = 59.7%
Variant = I52P; value = -0.193%
Variant = S104N; value = 16.3%
Variant = N77V; value = 78.6%
Variant = V118Q; value = 17.4%
